# Experimental data pooled from the literature.
# Each line is one published result; not all experiments were run side by side. Numbers after ± are the reported error.
# nadD: Probable nicotinate-nucleotide adenylyltransferase (nadD, Mycobacterium tuberculosis, UniProt P9WJJ5)
# Sequence of UniProt Q00975 (whole entry, looked up): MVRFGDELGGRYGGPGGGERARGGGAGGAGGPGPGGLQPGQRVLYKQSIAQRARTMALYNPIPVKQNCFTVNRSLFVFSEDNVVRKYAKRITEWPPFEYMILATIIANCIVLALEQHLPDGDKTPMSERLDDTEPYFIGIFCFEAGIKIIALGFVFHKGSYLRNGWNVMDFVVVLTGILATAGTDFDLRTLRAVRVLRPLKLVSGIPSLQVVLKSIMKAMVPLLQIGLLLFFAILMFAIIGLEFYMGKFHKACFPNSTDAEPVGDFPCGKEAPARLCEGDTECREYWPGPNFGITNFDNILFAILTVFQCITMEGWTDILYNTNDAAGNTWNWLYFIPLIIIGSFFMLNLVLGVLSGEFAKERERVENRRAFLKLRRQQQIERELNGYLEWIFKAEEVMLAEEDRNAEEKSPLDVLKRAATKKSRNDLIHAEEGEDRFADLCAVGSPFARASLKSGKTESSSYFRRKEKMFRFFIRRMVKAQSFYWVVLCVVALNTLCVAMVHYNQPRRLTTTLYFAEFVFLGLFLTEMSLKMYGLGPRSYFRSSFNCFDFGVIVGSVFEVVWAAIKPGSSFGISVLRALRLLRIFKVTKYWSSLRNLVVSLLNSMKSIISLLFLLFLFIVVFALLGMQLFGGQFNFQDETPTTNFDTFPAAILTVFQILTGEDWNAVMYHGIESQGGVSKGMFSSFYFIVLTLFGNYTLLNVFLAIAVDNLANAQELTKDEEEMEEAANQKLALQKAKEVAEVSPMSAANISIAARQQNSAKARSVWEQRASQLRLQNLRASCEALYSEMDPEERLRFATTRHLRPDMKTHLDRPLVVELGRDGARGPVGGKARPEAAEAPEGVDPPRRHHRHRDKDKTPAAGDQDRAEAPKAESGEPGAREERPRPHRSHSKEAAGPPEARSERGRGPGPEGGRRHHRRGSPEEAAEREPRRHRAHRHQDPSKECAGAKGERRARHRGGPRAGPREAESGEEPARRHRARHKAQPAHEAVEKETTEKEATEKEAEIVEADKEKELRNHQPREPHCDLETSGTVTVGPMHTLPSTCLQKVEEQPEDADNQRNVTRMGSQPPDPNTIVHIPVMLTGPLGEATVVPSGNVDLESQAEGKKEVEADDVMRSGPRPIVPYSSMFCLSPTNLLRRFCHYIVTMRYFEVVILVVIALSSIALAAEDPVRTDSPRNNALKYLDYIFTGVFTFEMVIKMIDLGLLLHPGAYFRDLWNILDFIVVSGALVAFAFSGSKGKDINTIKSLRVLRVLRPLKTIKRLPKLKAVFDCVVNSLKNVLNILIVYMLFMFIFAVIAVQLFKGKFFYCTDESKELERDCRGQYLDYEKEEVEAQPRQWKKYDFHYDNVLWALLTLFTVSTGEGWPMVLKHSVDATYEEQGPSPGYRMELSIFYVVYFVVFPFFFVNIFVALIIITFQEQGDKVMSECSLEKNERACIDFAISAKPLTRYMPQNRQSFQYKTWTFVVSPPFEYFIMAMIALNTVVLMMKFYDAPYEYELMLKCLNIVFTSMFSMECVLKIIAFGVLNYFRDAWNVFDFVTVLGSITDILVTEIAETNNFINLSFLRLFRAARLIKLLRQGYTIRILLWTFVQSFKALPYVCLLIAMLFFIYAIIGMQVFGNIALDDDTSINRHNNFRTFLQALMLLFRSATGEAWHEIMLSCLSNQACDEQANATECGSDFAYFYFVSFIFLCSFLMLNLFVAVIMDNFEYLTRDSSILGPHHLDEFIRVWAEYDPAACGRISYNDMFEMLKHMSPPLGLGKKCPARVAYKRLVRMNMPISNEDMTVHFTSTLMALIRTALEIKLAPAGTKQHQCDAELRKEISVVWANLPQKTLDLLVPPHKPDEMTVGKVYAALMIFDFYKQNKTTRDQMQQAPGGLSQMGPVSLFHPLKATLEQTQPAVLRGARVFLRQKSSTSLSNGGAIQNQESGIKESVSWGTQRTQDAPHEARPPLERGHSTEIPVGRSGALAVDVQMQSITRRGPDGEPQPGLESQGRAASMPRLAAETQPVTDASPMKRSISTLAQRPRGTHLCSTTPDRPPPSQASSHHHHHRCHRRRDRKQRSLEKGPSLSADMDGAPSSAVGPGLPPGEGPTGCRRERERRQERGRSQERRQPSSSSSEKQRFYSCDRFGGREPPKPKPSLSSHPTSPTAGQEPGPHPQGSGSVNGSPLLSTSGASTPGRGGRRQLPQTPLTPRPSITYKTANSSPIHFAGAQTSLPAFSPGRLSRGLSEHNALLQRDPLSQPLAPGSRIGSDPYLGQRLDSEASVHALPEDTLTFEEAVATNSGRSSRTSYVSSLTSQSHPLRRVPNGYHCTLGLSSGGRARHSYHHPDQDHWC
# Sequence of UniProt Q9Y5N1 (whole entry, looked up): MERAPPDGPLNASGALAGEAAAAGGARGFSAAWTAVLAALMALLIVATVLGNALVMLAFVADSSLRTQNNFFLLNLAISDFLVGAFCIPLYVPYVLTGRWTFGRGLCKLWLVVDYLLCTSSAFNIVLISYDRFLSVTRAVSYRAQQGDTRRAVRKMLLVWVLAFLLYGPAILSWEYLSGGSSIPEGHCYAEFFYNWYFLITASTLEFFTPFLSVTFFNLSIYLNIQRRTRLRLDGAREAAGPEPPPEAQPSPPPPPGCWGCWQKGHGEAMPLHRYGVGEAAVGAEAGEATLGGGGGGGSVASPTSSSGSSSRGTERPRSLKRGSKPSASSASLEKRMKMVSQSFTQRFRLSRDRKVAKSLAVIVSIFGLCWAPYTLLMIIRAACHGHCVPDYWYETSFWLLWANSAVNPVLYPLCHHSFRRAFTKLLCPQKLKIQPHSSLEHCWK
# Sequence of UniProt P10635 (whole entry, looked up): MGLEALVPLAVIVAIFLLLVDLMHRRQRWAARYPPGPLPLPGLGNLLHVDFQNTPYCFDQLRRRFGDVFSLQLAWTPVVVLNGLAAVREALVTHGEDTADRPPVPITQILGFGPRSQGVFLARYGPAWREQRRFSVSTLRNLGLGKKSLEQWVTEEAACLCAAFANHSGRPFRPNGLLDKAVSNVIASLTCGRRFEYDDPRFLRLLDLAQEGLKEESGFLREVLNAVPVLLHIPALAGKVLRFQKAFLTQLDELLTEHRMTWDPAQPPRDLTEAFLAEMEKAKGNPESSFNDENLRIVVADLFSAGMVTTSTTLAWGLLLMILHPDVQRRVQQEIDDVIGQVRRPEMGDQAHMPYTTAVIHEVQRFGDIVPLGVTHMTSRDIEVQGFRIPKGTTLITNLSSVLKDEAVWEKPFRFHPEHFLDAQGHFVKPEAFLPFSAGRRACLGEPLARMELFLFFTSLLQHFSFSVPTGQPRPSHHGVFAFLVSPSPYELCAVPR
# Sequence of UniProt P41143 (whole entry, looked up): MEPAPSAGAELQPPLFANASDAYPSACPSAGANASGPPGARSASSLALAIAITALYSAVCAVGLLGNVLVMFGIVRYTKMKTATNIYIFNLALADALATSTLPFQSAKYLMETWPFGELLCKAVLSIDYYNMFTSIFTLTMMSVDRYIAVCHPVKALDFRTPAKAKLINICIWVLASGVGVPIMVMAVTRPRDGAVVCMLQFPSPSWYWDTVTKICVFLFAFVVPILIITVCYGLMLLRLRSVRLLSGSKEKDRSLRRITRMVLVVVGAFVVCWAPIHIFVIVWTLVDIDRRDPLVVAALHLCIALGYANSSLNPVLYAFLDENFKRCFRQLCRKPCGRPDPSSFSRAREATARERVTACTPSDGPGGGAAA
Molecule,target,test,system,setting,measurement,result
O=c1[nH]c2ccccc2n1C1CCN(CCCC(c2ccc(F)cc2)c2ccc(F)cc2)CC1,"Voltage-dependent N-type calcium channel subunit alpha-1B (Homo sapiens, UniProt Q00975)","calcium current, inhibitor, automated patch clamp",,"tonic block, holding potential -90 mV",IC50,> 30 µM
Cc1cc(C(=O)N[C@@H]2CC[C@@]3(O)[C@H]4Cc5cccc6c5[C@@]3(CCN4CC3CC3)[C@H]2O6)ccn1,"Delta-type opioid receptor (OPRD1, Homo sapiens, UniProt P41143)","ligand displacement, radioligand",,cell membranes,Ki,3.65 µM
CCn1cc(C(=O)Nc2ncc(C)s2)c(=O)c2cc(F)c(N3CCN(C(=O)c4ccco4)CC3)cc21,nadD,"enzyme activity, inhibitor, released pyrophosphate",,,IC50,> 100 µM
CNC(C)Cc1ccc2c(c1)OCO2 (stereo not drawn),"Cytochrome P450 2D6 (CYP2D6, Homo sapiens, UniProt P10635)",binding,proteoliposomes,,Kd,17 to 56 µM
C[C@]12CC[C@H]3[C@@H](CCC4=CC(=O)CC[C@@]43C)[C@@H]1CC[C@@H]2O,mouse anti-cortisol Fab 17,native MS titration,200 mM ammonium acetate,"1.5% DMSO, 0.5% methanol, with: Fab 100 nM",Kd,26 ± 8 µM
CC1CCC(C(C)C)C(OC(=O)Cn2c(COc3ccccc3)[n+](C)c3ccccc32)C1 (stereo not drawn),nadD,released PPi detection,,,IC50,17.9 ± 2.2 µM
NC(=O)c1cccnc1,Halyomorpha halys Nan-Iav W323A,[3H]-AP competition binding,,,Ki,> 10000 µM
CCn1cc(C(=O)NCc2ccccc2)c(=O)c2cc(F)c(N3CCN(C(=O)c4ccco4)CC3)cc21,nadD,"enzyme activity, inhibitor, released pyrophosphate",,,IC50,3.7 ± 0.6 µM
C[C@H](N)Cc1ccccc1,"Histamine H3 receptor (HRH3, Homo sapiens, UniProt Q9Y5N1)","GTPγS binding, antagonist",,cell membranes,Kb,> 10 µM
GsMTx4,"stretch-activated cation channel, rat","ion current, inhibitor, outside-out patch clamp",rat astrocytes,"holding -50 mV, pressure-activated",Kd,0.631 ± 0.24 µM
[Tb+3],"pglB (Campylobacter lari, UniProt B9KDD4)","binding, luminescence",,,Kd,1.8 µM
[C-]#[O+],Vibrio cholerae H-NOX Fe(II),gaseous ligand binding,,24 °C,Kd,< 50 µM

# Repeated from above:
Molecule,target,test,system,setting,measurement,result
CCn1cc(C(=O)NCc2ccccc2)c(=O)c2cc(F)c(N3CCN(C(=O)c4ccco4)CC3)cc21,nadD,"enzyme activity, inhibitor, released pyrophosphate",,,IC50,3.7 ± 0.6 µM
